# Measured values gathered from unrelated publications.
# Numbered parts are unrelated; each lists some results of a single study.

# Series 1 — technique: universal PBM; form: double-stranded DNA, one strand shown; sample: in vitro; concentration: not given; reading: higher = stronger binding
# Target: Sal-like protein 4, full length isoform B (SALL4, Homo sapiens, UniProt Q9UJQ4-2, residues 1-616)
# Setting: 8-mer, flanks averaged, mean of replicates
Strand,E-score
CCGCCCTA,-0.121
GCGGTTTA,-0.0871
TGATTACA,0.241
ACTGAAGA,0.00874
CAGCGTAA,0.043
CAGACTAA,-0.0194
GATCCGGC,-0.201
CAGCGCAC,-0.195

# Series 2 — mode: inhibitor; concentration: 20 µM
# Target: Replicase polyprotein 1ab, nsp13 helicase (rep, Severe acute respiratory syndrome coronavirus 2, UniProt P0DTD1)
SMILES,inhibition
COc1ccccc1OCCNCC(O)COc1cccc2[nH]c3ccccc3c12 (stereo not drawn),14.9%
O=c1cc[nH]c(=O)[nH]1,3.7%
CC(C)NCC(O)c1ccc([N+](=O)[O-])cc1 (stereo not drawn),-1.72%
Cc1nn(C)c2c1C(c1cccc(Cl)c1)=NCCN2,4.05%
COC(F)(F)C(Cl)Cl,8.43%
O=C(NCC1(N2CCN(c3ccccc3)CC2)CCOCC1)c1cccnc1Sc1ccccc1,8.04%
CCCCN1CCCCC1C(=O)Nc1c(C)cccc1C (stereo not drawn),6.06%
CC[C@@]1(O)C(=O)OCc2c1cc1n(c2=O)Cc2c-1nc1cc(F)c(C)c3c1c2[C@@H](N)CC3,7.46%
O=C(O)CCc1c(C(=O)O)[nH]c2cc(Cl)cc(Cl)c12,7.42%
Cc1nc(Nc2n[nH]c3c2CN(C(=O)N[C@H](CN(C)C)c2ccccc2)C3(C)C)c2sccc2n1,-2.14%
CCc1c(C(=O)NCCc2ccc(N3CCCCC3)cc2)[nH]c2ccc(Cl)cc12,0.07%
COc1cccc(N(C)C(=S)Oc2ccc3c(c2)CCCC3)n1,-0.08%
CCOC(=O)N1c2ccc(C(F)(F)F)cc2[C@@H](N(Cc2cc(C(F)(F)F)cc(C(F)(F)F)c2)C(=O)OC)C[C@H]1CC,2.29%
CC(C)[C@@]1(NC(=O)[C@@H]2C[C@@H]3c4cccc5[nH]cc(c45)C[C@H]3N(C)C2)O[C@@]2(O)[C@@H]3CCCN3C(=O)[C@H](Cc3ccccc3)N2C1=O,7.95%
c1ccc2nc(N3CCNCC3)ccc2c1,1.85%
Brc1c(NC2=NCCN2)ccc2nccnc12,22.1%
Cc1cc2c(N3CCCC3)nc(N3CCCC3)nc2n1C,12.4%
Cn1c(=O)c2c(ncn2CC(=O)Nc2ccc(-c3ccccc3)nn2)n(C)c1=O,-7.02%
Nc1nc(Nc2ccc3c(c2)CC[C@@H](N2CCCC2)CC3)nn1-c1cc2c(nn1)-c1ccccc1CCC2,79.8%
OC(c1ccccc1)C1CCN(CCc2ccccc2)CC1 (stereo not drawn),7.07%
CCNC(=O)N1CCN(CCCC(c2ccc(F)cc2)c2ccc(F)cc2)CC1,-1.67%
CN1CCC[C@H]1c1cccnc1,4.65%
CN1C(=O)N(c2cc(Cl)cc(Cl)c2)C(=O)[C@]12CN(c1ccc(C(=O)O)cn1)C[C@H]2c1ccc(C#N)cc1,5.93%
O=C(NOCC1CC1)c1ccc(F)c(F)c1Nc1ccc(I)cc1Cl,10.1%
O=C1c2ccccc2-n2c1nc1ccccc1c2=O,2.25%

# Series 3 — technique: RNA Bind-n-Seq; form: RNA; sample: in vitro; concentration: 365 nM; baseline: no-protein control; reading: higher = stronger binding
# Target: RNA binding protein fox-1 homolog 2, RRM domain, GST-SBP tag (RBFOX2, Homo sapiens, UniProt O43251-10, residues 100-194)
# Setting: natural RNA segment, single round, ends assumed
# Construct (chain): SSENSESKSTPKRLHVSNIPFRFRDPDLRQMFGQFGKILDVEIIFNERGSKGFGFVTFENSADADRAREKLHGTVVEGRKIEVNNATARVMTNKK
Strand,RBNS enrichment (R)
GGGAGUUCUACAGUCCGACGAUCGAGUGGUGGCCUAUUUCAGCUGCUUUGACAAAAUGACUGGCUCCUGACUUAACGUUCUAUAAAUGAAUGUGCUGAAGCAAAGUGCCCAUGGUGGCGGCGAAGAAGAGAAAUGGAAUUCUCGGGUGCCAA,0.867
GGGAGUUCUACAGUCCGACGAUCAUCACAAUAGCAUCCCAGAGAGACAGUAGGAAAUUUCUCCUUAGUGAGAGCUGAGUCCUUGAGAAGUUAAGAGACUGUUUCCUGCUUCCCACCCCACCCCGUUUUUUGUCUGGAAUUCUCGGGUGCCAA,1.14
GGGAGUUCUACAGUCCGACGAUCUUAAGCUGCCUGUGAUAUGUCCACUGGGCUGAGAUUGGAGGCCUCAGGCAGGAGCCCACCCAUAGUUCUCUUCCCUAUGACGACUUCCCCAGAUAGCAUUAGCCACCCUGUGGAAUUCUCGGGUGCCAA,0.489
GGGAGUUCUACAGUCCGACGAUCCUGUCUGCAAACAGUGUCAGGAUCAGAAUCAAGGACAGGAGGCAAAGUGAAGUUCACACCCAGCACCCACAACCUUUAUCAGUCCUCCCGACUCCCCACCCUUUUGCAUUUGGAAUUCUCGGGUGCCAA,1.68
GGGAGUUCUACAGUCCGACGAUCAAUCUAGCCUAGCUGGCCUUAUUUGGGAAGCGUAACUGCUUUUAGCAUAUGGGAGUAUUUUUUCACAUUUUCUUUGUAUAAAAUUUGUAUUAAACUUAAAUAUCUUUUUUUGGAAUUCUCGGGUGCCAA,0.491
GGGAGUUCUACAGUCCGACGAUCCCAGUCAAGAAGAAAAAGGUUUGCAUUCUCACAUUGCCAGGAUGAUAAGUUCCUUUCCUUUUCUUUAAAGAAGUUGAAGUUUAGGAAUCCUUUGGUGCCAACUGGUGUUUUGGAAUUCUCGGGUGCCAA,0.911
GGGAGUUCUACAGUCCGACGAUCAUCUAUGAGCCCCCUCUCUCAUUCUGUGAUGGGUAUAGCAGAAACCUUCCUGCUUUUCACCAGGAACUCUAGACUGGACGCAGUCUUCUUCCUACUGGCUGGGGUUUCUCUGGAAUUCUCGGGUGCCAA,0.25
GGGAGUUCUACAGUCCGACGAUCUGAGUCCUUGUCUUCCAUGGUCUGAGAAUUGUCAGUAUCUGGCUCCAGGCCUGACUGGGGUAAGAAACAUGCCUCCACUUUACAGAGGUAGCUAUGGGUUUGGAACACUGUGGAAUUCUCGGGUGCCAA,0.331

# Series 4 — technique: protein binding microarray; form: double-stranded DNA, one strand shown; sample: in vitro; concentration: not given; baseline: not given; reading: higher = stronger binding
# Target: Histone acetyltransferase KAT6A, both winged helices, GST fusion (KAT6A, Homo sapiens, UniProt Q92794, residues 1-181)
# Setting: 8-mer, flanks averaged, mean of 2 arrays, mostly near background
# Target sequence (chain): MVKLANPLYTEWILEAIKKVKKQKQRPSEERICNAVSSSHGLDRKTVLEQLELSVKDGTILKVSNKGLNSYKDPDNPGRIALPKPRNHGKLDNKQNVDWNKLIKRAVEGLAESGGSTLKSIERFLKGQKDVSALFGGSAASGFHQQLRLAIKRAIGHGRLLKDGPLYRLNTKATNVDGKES
Strand,E-score
CAGACTAA,-0.0913
AGTTTTAG,-0.0276
ATTGCTTG,0.00556
ATCAGGGG,-0.211
ACGGAAAT,0.206
AACTAGTT,-0.0904
GTACAGAA,-0.0746
CAACCCTC,-0.244

# Other studies, line by line — cell line: HEK-293T; observed: pseudovirus infection; organism: VSV pseudotyped with SARS-CoV-2 spike; concentration: 10 µM; time: 16 h; baseline: vehicle-treated
SMILES,technique,GFP-positive cells
N=C1CCCN1Cc1nc(O)nc(O)c1Cl,,93.5%
CC#CCn1c(N2CCC[C@@H](N)C2)nc2c1c(=O)n(Cc1nc(C)c3ccccc3n1)c(=O)n2C,FDA-approved drug library screen,60.2%
